Results of several laboratories.
Values joined by “and” are separate records of one study, mostly repeats; a detail may differ. ± marks the error that the study gave.

SMILES = CC[C@H](C)C(=O)O[C@H]1CCC=C2C=C[C@H](C)[C@H](CC[C@@H]3C[C@@H](O)CC(=O)O3)[C@H]21; cell line = BT-12; test = cell viability, MTT; conditions = 10 µM, 72 h; measurement = inhibition; result = 80.8%
SMILES = NC(=O)c1cccc(-c2cc(Nc3ccc(OC(F)(F)F)cc3)ncn2)c1; cell line = HeLa expressing Ub(G76V)-GFP; test = Ub(G76V)-GFP degradation, inhibitor, cycloheximide chase; conditions = 12 µM; measurement = inhibition; result = 17%
SMILES = CCCOc1nc(-c2cccc(O)c2)cc(-c2cc3cc(Cl)ccc3nc2N2CCOCC2)c1C#N; cell line = WI-38; test = cell viability, MTT; conditions = 72 h; measurement = EC50; result = 0.061 ± 0.001 µM
SMILES = CC1(C)CN(CCCCC(=O)N[C@@H](CCCCNC(=O)CCCCCCC(=O)NCCCC[C@H](NC(=O)N[C@@H](CCC(=O)O)C(=O)O)C(=O)O)C(=O)O)CC[N]2CC(C)(C)[S][Tc]2(=[O])[S]1 (some centres unmarked) [technetium-99m labelled]; cell line = LNCaP; conditions = 25 nM, 1 h, 4 °C; measurement = surface-bound activity; result = 1.95 ± 0.93 %AD/mg protein
SMILES = CCn1cc(-c2cc(Cn3ccoc3=N)cc3c2CCN([C@@H](C)c2cc(OC)ccn2)C3=O)c(C(F)(F)F)n1; cell line = HSC-3; test = cell growth, inhibitor; conditions = 120 h; measurement = EC50; result = > 30 µM
SMILES = COc1ccc(C[C@H](NC(=O)[C@H](C)NC(=O)CN2CCOCC2)C(=O)N[C@@H](Cc2ccccc2)C(=O)C2(C)CO2)cc1 (stereo in doubt); cell line = BT-12; test = cell viability, MTT; conditions = 10 µM, 72 h; measurement = inhibition; result = 95.1%
SMILES = C#CCCC(=O)SCCNC(=O)CCNC(=O)[C@H](O)C(C)(C)COP(=O)(O)OP(=O)(O)OC[C@H]1O[C@@H](n2cnc3c(N)ncnc32)[C@H](O)[C@@H]1OP(=O)(O)O; cell line = HBL-1; conditions = 1 µM, 120 h; measurement = viability; result = 106%
SMILES = CCCCc1c(-c2ccc(O)cc2)[nH]c2nccnc12; cell line = HeLa expressing Ub(G76V)-GFP; test = Ub(G76V)-GFP degradation, cycloheximide chase; conditions = 12 µM; measurement = inhibition; result = 3%
SMILES = NC(=O)C1CCCc2c1[nH]c1ccc(Cl)cc21 (racemic); cell line = HBL-1; conditions = 0.1 µM, 120 h; measurement = viability; result = 125%
SMILES = COc1cnc2cccc(N3CCc4c(cc(Cn5ccnc5C)cc4-c4cn(C)nc4C(F)(F)F)C3=O)c2c1; cell line = NCI-H2087; test = cell growth, inhibitor; conditions = 120 h; measurement = EC50; result = 0.146 µM
SMILES = COc1cc(/C=C/C(=O)N2CCC=CC2=O)cc(OC)c1OC; cell line = MDA-MB-468; test = qRT-PCR, refers to: PRDX5; conditions = 30 µM, 6 h; how to read = reference: time zero; measurement = mRNA level; result = 106 ± 14.7%
SMILES = CCS(=O)(=O)c1cccc(-c2cc(C(=O)NC3CCN(C)CC3)c(C)c3[nH]c4ncc(C)cc4c23)c1; cell line = BT-12; test = cell viability, MTT; conditions = 10 µM, 72 h; measurement = inhibition; result = 94.4%
SMILES = CNc1ncnc2c1c(-c1ccc3cc(OC4CC4)ccc3c1)nn2CC(C)(C)O; cell line = LNCaP; test = radiometric; conditions = 20 µM, 3 h, with: [3H]3-O-methylglucose; measurement = 3-O-methylglucose uptake; result = no inhibition
SMILES = CC(=O)c1cc2c(o1)C(=O)c1ccccc1C2=O; cell line = BT-12; test = cell viability, MTT; conditions = 10 µM, 72 h; measurement = inhibition; result = 94.6%
SMILES = Cn1cc(Nc2nccc(-c3ccc4c(c3)CN(C3COC3)CC[C@H]4NC(=O)c3cn(C(C)(C)C)nn3)n2)cn1; cell line = human B cells; conditions = 100 nM, 64 h, stimulation-downregulated genes, with: CD40L, anti-IgM, IL-21; measurement = number of upregulated genes; result = 256
SMILES = C=CC1=C(C)c2cc3[n-]c(cc4nc(cc5[n-]c(cc1n2)c(C)c5C=C)C(C)=C4CCC(=O)O)c(CCC(=O)O)c3C.[Zn+2]; cell line = SH-SY5Y; test = RNA-seq, refers to: PTGS1 mRNA; conditions = 5 µM, 5 h; how to read = reference: untreated cells; measurement = fold change; result = 2.48
SMILES = CO[C@H]1[C@H](O[C@H]([C@H]2O[C@@H](n3ccc(=O)[nH]c3=O)[C@H](O)[C@@H]2O)[C@H](NCCCNC(=O)[C@@H](NC(=O)[C@@H](NC(=O)N[C@H](C(=O)O)C(C)C)[C@@H]2CCN=C(N)N2)[C@@H](OC(=O)CCCCCCCCCCCCN(O)C(=N)N)C(C)C)C(=O)O)O[C@H](CN)[C@H]1O; cell line = MDA-MB-231; test = annexin V/7-AAD flow cytometry; conditions = 1.0 µM, 48 h; how to read = reference: untreated; measurement = apoptotic cells; result = ~1.5 fold
SMILES = Cc1ccc(S(=O)(=O)/C=C/C#N)cc1; cell line = BT-12; test = cell viability, MTT; conditions = 10 µM, 72 h; measurement = inhibition; result = 94.6%
SMILES = CCCCc1nc2cc(/C=C/C(=O)NO)ccc2n1CCN(CC)CC; cell line = HBL-1; conditions = 1 µM, 120 h; measurement = viability; result = 0.465%
SMILES = Cc1cc(Nc2ncc(Cl)c(Nc3ccccc3S(=O)(=O)C(C)C)n2)c(OC(C)C)cc1C1CCNCC1; cell line = CLB-GE; test = phosphoproteomics LC-MS/MS, refers to: PDZD11 phosphorylation; conditions = 200 nM, 60 min; how to read = reference: untreated; measurement = log2 fold change; result = -3.36
SMILES = CC(Nc1nc(N2CCCC2)nc2ccccc12)c1ccccc1 (centres unmarked); cell line = HeLa Kyoto; test = RelA nuclear import, high content imaging; conditions = 0.16 µM, 3 h, with: 1 µM PMA, 60 min; measurement = cells with nuclear RelA; result = 82.9% and 83.7%
SMILES = CCc1cnn2c(NCc3ccc[n+]([O-])c3)cc(N3CCCC[C@H]3CCO)nc12; cell line = BT-12; test = cell viability, MTT; conditions = 10 µM, 72 h; measurement = inhibition; result = 94.8%
SMILES = N#C/C(=C/c1ccc(O)c(O)c1)C(=O)NCc1ccccc1; cell line = HeLa expressing Ub(G76V)-GFP; test = Ub(G76V)-GFP degradation, cycloheximide chase; conditions = 12 µM; measurement = inhibition; result = 10%
SMILES = CCCCc1nc(Cl)c(CO)n1Cc1ccc(-c2ccccc2-c2nn[nH]n2)cc1; cell line = human PBMC; test = RNA-seq, refers to: CCR2 mRNA; conditions = 10 µg/mL, 24 h; how to read = reference: untreated control; measurement = log2 fold change; result = -1.58
SMILES = O=C(/C=C/C=C/C=C/C1CCCCC1)NC1=C[C@@](O)(/C=C/C=C/C=C/C(=O)NC2=C(O)CCC2=O)[C@@H]2O[C@@H]2C1=O; cell line = A2058; test = cell growth, CellTiter-Glo; conditions = 78 h; measurement = GI50; result = 19.3 µM
SMILES = N#C/C(=C(/N)Sc1ccc(N)cc1)c1ccccc1C(F)(F)F; cell line = HeLa expressing Ub(G76V)-GFP; test = Ub(G76V)-GFP degradation, cycloheximide chase; conditions = 12 µM; measurement = inhibition; result = 15%
SMILES = O=C(O)c1ccnc(C(=O)O)c1; cell line = HBL-1; conditions = 0.5 µM, 120 h; measurement = viability; result = 112%
SMILES = CC/C(=N\NC(=O)NCc1cccc(O)c1)c1ccc(O)c(C)c1O; cell line = SK-OV-3; test = Western blot, refers to: phospho-YAP; conditions = 1 µM, 1 h, 3D culture, gellan gum, unit not given; how to read = reference: total YAP; measurement = protein level; result = 0.63 ± 0.25
SMILES = COc1ccc(-n2nc(C(C)=O)s/c2=N\N=C(/C)c2ccc(NC(=O)c3ccc(C)cc3)cc2)cc1; cell line = MCF7; conditions = 0.078 µM; measurement = toxicity; result = 14.5%
SMILES = O=C(CCCCCCC(=O)Nc1ccc(I)cc1)NO; cell line = HBL-1; conditions = 0.5 µM, 120 h; measurement = viability; result = 4.17%
SMILES = COc1cc2ncnc(Nc3ccc(Oc4ccccc4)c(C)c3C)c2cc1OC.Cl; cell line = NCI-H2087 (BRAF L597V); test = cell viability; conditions = concentration not given, 72 h, with: trametinib; how to read = direction not given; measurement = Bliss synergy score; result = 21%
SMILES = NC(=O)c1ccc(-c2nc(-c3ccc4c(c3)OCCO4)c(-c3ccccn3)[nH]2)cc1; cell line = HeLa expressing Ub(G76V)-GFP; test = Ub(G76V)-GFP degradation, cycloheximide chase; conditions = 12 µM; measurement = inhibition; result = 6%
SMILES = Cc1nn(-c2nc3c(F)cc(F)cc3s2)c(O)c1C(c1ccc(C(F)(F)F)cc1)c1c(C)nn(-c2nc3c(F)cc(F)cc3s2)c1O; cell line = THP1-Dual; test = IFN luciferase reporter; conditions = 20 µM, with: HT-DNA; measurement = inhibition; result = 86.6% and 87.4% and 94% and 86.2% and 94.1% and 87.6%
SMILES = Nc1nc(S)nc(O)c1N=Cc1cn(-c2ccccc2)nc1-c1ccc(Cl)cc1; cell line = CCRF-CEM; test = flow cytometry; conditions = CC20 or CC30, 72 h; measurement = cells in S phase; result = 23.4%
SMILES = Cn1cc(-c2ccc(-c3cncc(Cl)c3N3CCC4(CCNC4=O)CC3)cc2)cn1; cell line = COLO 205; test = microarray, refers to: CASC5; conditions = concentration not given, 6 h, gene set AF15q14; how to read = reference: untreated cells; measurement = fold change in expression; result = -2.28
SMILES = COc1ccc(-c2cnc3c(-c4ccsc4)cnn3c2)cc1; cell line = HeLa expressing Ub(G76V)-GFP; test = Ub(G76V)-GFP degradation, cycloheximide chase; conditions = 12 µM; measurement = inhibition; result = -3%
SMILES = Cc1cc(Nc2ccc(NC(=O)c3ccc(Nc4ccnc5ccccc45)cc3)cc2)nc(N)n1; cell line = HBL-1; conditions = 0.1 µM, 120 h; measurement = viability; result = 83.2%
SMILES = c1ccc2[nH]ccc2c1; cell line = HCT-8; test = RNA-seq, refers to: YPEL1; conditions = concentration not given; measurement = mRNA level, LS mean; result = 15.2 counts per million
SMILES = Cc1ccccc1Cn1cc(-c2cccc(NC(=O)Nc3ccc(F)cc3)c2)nn1; cell line = Huh-7; test = annexin V/PI flow cytometry; conditions = 5 µM, 72 h; measurement = apoptotic cells; result = no effect
SMILES = COC(=O)/C=C/C(=O)N(O)CCCCNCc1ccc(COC(=O)Nc2cccc3ccccc23)cc1; cell line = HBL-1; conditions = 1 µM, 120 h; measurement = viability; result = 113%
SMILES = C=CC(=O)N1CCCN(C(=O)c2cc(Sc3cnc(NC(=O)C4CC4)s3)c(C)cc2OC)C[C@H]1C; cell line = human naive CD4 T cells; test = IFNγ or IL-4, intracellular cytokine staining; conditions = 10 µM; measurement = cytokine production; result = inhibited
SMILES = CCn1cc(-c2cc(Cn3ccnc3)cc3c2CCN([C@H](c2cc(OC)ccn2)C2CC2)C3=O)c(C(F)(F)F)n1; cell line = HSC-3; test = cell growth, inhibitor; conditions = 120 h; measurement = EC50; result = > 30 µM
SMILES = COc1cc2c(NC3CCN(C(C)C)CC3)nc(C3CCCCC3)nc2cc1OCCCN1CCCC1; cell line = HBL-1; conditions = 0.1 µM, 120 h; measurement = viability; result = 124%
SMILES = CC(C)NCC(O)c1ccc(O)c(O)c1 (centres unmarked); cell line = mouse ventricular cardiomyocytes; conditions = dose not given, 0.311 s; measurement = sarcomere length; result = 1.8 µm

Some of these lines once more:
SMILES = CCc1cnn2c(NCc3ccc[n+]([O-])c3)cc(N3CCCC[C@H]3CCO)nc12; cell line = BT-12; test = cell viability, MTT; conditions = 10 µM, 72 h; measurement = inhibition; result = 94.8%
SMILES = C=CC(=O)N1CCCN(C(=O)c2cc(Sc3cnc(NC(=O)C4CC4)s3)c(C)cc2OC)C[C@H]1C; cell line = human naive CD4 T cells; test = IFNγ or IL-4, intracellular cytokine staining; conditions = 10 µM; measurement = cytokine production; result = inhibited
SMILES = COc1ccc(-c2cnc3c(-c4ccsc4)cnn3c2)cc1; cell line = HeLa expressing Ub(G76V)-GFP; test = Ub(G76V)-GFP degradation, cycloheximide chase; conditions = 12 µM; measurement = inhibition; result = -3%
SMILES = COc1cc2ncnc(Nc3ccc(Oc4ccccc4)c(C)c3C)c2cc1OC.Cl; cell line = NCI-H2087 (BRAF L597V); test = cell viability; conditions = concentration not given, 72 h, with: trametinib; how to read = direction not given; measurement = Bliss synergy score; result = 21%
SMILES = CC[C@H](C)C(=O)O[C@H]1CCC=C2C=C[C@H](C)[C@H](CC[C@@H]3C[C@@H](O)CC(=O)O3)[C@H]21; cell line = BT-12; test = cell viability, MTT; conditions = 10 µM, 72 h; measurement = inhibition; result = 80.8%
SMILES = Cn1cc(Nc2nccc(-c3ccc4c(c3)CN(C3COC3)CC[C@H]4NC(=O)c3cn(C(C)(C)C)nn3)n2)cn1; cell line = human B cells; conditions = 100 nM, 64 h, stimulation-downregulated genes, with: CD40L, anti-IgM, IL-21; measurement = number of upregulated genes; result = 256
SMILES = CC(C)NCC(O)c1ccc(O)c(O)c1 (centres unmarked); cell line = mouse ventricular cardiomyocytes; conditions = dose not given, 0.311 s; measurement = sarcomere length; result = 1.8 µm
